Experimental data pooled from the literature.
Parts stem from different laboratories: compare values within a part only. Substitutions count along the parent as printed.

Series 1 — technique: protein-binding microarray; molecule type: double-stranded DNA, one strand shown; sample: in vitro; concentration: not given; direction: higher = stronger binding
Target: Protein max, full length (MAX, Homo sapiens, UniProt P61244-2, residues 1-151)
Notes: k-mer, scored over probes, only values ≥0.25
With `ACGTGAAC` the E-score was 0.332.
The E-score of `ATGTGTAC` is reported as 0.334.
`AGGTGGCG` gave an E-score of 0.328.
`ACGCCGGA` gave an E-score of 0.278.
For `CGTGTGCC`, the E-score was 0.372.
With `CATGTTGC` the E-score was 0.352.
For `ATGCCATG`, the E-score was 0.346.
`CACCCATG` gave an E-score of 0.322.
For `AGCATGCT`, the E-score was 0.447.

Series 2 — target: CCNB2, cyclin fold, Cln2 fusion (human); technique: yeast growth competition, sequencing; sample: yeast; notes: weak parent motif; reference: not given; direction: higher = stronger binding
Starting sequence: RBL2 docking peptide (human); STTRRRLFVENDS
Under “normalised enrichment score”, `STTGRRLFVENDS [R4G]` is recorded as -0.577.
`STTRRRLLVENDS [F8L]`: “normalised enrichment score” 0.302.
Under “normalised enrichment score”, `STTRRRLFVENDT [S13T]` is recorded as 0.0182.
`STTKRRLFVENDS [R4K]`: “normalised enrichment score” 0.172.

Series 3 — technique: RNAcompete; molecule type: RNA; sample: in vitro; concentration: 20 nM; notes: 7-mer, probes averaged, single round; reference: mean of 7-mers; direction: higher = stronger binding
Target: PABPC1L2, full length, GST fusion (mouse, UniProt A0ABA7IW68)
Residues (chain): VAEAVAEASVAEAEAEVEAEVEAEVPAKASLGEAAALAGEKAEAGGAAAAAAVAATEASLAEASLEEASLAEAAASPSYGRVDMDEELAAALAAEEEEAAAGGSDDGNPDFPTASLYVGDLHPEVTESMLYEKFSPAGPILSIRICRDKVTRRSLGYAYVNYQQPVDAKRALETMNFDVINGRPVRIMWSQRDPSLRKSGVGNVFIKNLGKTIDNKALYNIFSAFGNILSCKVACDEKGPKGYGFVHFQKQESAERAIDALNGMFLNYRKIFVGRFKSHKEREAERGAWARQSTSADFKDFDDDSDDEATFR
`AUUAGUU` has a 7-mer Z-score of -0.278.
`GAGCGAA` has a 7-mer Z-score of 0.294.
The 7-mer Z-score of `GGUGUGG` is reported as 0.0587.
`UUGGAAG` gave a 7-mer Z-score of 0.124.
The 7-mer Z-score of `CAGGGAA` is reported as 0.436.
With `AGUAACC` the 7-mer Z-score was -0.115.

Single results of other studies
For `PhoQ, residues 284 288 289 292 302 303 NSMLDC`, the fold induction was 5.51 (PhoP, residues 12 14 15 18 19 STWGI (Escherichia coli, UniProt P23836); Sort-seq, item: YFP reporter; E. coli; PhoQ-PhoP variant library, together with: 10 µM Mg2+; reference: high Mg2+ state, higher = stronger signaling).

For quick reference, copied from above (series 1):
`CACCCATG` gave an E-score of 0.322.
